Published values collected from several papers.
A part holds a random share of what one study measured.
Chain of UniProt P07949 (whole entry, unmodified, looked up): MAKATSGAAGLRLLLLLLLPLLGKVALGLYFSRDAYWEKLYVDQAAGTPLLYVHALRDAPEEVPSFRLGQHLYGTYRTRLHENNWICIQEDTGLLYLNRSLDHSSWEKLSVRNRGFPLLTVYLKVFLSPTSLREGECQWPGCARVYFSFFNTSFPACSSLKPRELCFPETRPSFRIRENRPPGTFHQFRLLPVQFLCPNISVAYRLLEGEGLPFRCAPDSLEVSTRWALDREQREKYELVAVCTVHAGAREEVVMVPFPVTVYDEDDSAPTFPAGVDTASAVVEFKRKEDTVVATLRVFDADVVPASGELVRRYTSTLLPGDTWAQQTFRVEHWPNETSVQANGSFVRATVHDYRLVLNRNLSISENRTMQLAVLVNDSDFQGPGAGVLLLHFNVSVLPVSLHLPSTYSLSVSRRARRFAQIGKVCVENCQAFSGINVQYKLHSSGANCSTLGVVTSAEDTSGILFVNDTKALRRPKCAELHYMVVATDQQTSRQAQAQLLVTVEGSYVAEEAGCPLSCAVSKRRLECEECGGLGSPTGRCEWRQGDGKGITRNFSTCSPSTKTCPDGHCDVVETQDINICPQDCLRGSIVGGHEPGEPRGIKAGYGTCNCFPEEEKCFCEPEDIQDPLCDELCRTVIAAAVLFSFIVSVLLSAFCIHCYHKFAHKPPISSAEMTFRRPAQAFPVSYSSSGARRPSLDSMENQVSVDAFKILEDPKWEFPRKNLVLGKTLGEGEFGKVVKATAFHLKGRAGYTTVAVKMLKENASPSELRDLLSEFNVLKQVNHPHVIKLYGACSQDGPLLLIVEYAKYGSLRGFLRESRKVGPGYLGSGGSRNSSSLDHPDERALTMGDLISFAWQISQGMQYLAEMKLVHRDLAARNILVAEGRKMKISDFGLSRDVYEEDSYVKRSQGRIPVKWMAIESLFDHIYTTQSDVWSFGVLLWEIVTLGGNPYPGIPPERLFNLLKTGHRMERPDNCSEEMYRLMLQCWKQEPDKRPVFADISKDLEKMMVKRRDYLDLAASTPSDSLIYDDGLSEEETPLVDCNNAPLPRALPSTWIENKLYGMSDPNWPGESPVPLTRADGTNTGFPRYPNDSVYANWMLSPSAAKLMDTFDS
Chain of UniProt Q9UF33 (whole entry, looked up): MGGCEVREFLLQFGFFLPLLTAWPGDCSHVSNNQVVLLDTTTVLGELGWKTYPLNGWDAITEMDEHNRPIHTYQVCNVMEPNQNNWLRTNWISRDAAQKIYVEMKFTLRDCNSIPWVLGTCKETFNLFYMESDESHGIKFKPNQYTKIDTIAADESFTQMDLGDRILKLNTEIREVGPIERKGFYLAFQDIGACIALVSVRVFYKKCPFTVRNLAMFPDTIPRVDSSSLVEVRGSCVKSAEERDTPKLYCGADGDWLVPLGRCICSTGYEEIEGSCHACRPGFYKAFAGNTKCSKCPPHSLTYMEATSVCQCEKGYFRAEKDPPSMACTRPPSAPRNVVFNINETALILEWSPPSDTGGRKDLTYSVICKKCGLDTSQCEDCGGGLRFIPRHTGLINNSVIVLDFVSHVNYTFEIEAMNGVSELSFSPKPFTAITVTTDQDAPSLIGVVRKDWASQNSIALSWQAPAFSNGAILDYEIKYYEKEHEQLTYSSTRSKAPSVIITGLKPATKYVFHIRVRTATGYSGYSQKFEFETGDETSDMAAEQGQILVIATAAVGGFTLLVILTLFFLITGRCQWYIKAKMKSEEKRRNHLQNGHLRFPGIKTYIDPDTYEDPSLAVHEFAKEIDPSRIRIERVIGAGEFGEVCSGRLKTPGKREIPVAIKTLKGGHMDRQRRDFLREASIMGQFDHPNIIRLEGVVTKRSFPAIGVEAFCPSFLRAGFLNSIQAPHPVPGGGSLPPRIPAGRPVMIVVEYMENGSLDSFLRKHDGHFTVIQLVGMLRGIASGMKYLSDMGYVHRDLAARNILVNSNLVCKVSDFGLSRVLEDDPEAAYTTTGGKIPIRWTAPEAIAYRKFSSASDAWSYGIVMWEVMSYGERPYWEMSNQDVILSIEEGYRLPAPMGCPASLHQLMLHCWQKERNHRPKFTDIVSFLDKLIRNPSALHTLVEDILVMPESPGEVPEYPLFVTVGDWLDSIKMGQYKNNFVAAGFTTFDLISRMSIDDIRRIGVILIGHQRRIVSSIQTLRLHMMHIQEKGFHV
Chain of UniProt Q04912 (whole entry, looked up): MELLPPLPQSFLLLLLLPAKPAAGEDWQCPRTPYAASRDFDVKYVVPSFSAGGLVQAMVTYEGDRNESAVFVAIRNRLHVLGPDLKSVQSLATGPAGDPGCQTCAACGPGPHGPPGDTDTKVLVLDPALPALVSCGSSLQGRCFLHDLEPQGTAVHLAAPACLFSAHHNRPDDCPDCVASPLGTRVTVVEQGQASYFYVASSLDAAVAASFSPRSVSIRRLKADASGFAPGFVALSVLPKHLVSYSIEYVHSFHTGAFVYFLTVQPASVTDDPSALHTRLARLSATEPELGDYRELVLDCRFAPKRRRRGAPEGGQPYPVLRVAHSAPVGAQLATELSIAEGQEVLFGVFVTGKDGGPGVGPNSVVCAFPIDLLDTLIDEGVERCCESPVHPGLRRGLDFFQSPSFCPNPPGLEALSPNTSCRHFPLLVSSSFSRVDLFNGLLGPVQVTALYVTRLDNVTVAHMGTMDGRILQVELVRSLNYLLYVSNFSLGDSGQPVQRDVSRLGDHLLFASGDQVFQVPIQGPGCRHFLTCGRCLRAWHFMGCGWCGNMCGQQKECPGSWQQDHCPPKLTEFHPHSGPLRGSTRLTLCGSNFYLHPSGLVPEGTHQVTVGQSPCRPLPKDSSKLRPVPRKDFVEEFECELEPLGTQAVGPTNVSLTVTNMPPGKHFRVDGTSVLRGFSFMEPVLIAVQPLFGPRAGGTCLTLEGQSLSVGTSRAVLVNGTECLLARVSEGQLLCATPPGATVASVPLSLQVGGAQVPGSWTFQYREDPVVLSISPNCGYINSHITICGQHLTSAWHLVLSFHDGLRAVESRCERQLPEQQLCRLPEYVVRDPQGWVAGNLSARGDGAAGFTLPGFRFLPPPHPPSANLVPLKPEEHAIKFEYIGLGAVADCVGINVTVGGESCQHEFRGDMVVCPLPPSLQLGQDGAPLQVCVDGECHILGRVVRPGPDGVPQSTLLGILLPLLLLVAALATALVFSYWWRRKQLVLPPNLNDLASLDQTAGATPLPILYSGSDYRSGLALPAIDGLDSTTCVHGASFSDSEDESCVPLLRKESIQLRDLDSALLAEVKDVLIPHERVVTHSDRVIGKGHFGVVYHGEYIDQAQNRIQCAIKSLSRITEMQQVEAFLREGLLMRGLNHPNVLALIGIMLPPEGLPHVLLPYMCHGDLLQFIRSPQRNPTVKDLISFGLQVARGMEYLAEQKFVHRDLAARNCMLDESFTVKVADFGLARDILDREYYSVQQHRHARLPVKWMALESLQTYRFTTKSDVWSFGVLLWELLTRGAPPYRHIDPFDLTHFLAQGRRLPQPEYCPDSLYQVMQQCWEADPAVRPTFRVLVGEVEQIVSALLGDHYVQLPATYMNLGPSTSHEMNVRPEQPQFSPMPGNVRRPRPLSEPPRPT

Sample 1
Target: Beta-1 adrenergic receptor (ADRB1, Homo sapiens, UniProt P08588)
Chain of UniProt P08588 (whole entry, looked up): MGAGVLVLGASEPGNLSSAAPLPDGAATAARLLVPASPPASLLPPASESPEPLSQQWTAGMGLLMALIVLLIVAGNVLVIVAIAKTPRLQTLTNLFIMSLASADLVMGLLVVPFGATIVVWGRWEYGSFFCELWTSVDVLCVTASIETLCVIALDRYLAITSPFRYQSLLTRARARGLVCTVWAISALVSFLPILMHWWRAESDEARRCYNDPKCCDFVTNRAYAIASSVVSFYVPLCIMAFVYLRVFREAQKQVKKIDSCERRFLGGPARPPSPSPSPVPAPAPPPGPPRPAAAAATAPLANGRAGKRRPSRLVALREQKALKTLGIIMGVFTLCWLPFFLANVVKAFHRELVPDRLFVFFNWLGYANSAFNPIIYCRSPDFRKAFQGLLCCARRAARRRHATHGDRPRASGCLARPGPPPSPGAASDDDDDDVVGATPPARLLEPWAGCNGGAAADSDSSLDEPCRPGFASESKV
Action: antagonist
| SMILES | IC50 |
| --- | --- |
| Clc1cccc(Nc2cnc3ccc(N4CCOCC4)nn23)c1 | ≥ 100 µM |
| CCN(CC)c1ccc(C(=C2C=CC(=[N+](CC)CC)C=C2)c2cc(S(=O)(=O)O)ccc2S(=O)(=O)[O-])cc1 | 20 µM |
| COc1ccccc1N1CCN([C@@H]2[C@H](O)[C@H](CO)O[C@@H]2CN[S+](C)(=O)[O-])CC1 | ≥ 100 µM |
| O=C(Nc1ccc([C@@H](O)[C@H]2COCC(=O)N2Cc2ccc(F)cc2)cc1)c1ccccc1 | ≥ 100 µM |

Sample 2
Target: Casein kinase I isoform delta (CSNK1D, Homo sapiens, UniProt P48730)
Chain of UniProt P48730 (whole entry, looked up): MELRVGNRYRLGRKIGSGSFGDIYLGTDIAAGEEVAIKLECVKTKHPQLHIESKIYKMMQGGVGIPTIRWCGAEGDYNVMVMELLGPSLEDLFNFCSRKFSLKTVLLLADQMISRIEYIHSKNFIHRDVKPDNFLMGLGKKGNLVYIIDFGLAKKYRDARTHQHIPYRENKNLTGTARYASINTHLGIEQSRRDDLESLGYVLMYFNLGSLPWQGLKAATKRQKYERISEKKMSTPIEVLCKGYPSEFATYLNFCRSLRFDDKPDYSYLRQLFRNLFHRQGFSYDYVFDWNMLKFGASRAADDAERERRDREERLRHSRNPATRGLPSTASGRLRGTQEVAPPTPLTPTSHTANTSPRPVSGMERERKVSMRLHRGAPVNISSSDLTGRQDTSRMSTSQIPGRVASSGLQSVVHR
Read-out: enzyme activity
Action: inhibitor
Concentration: 0.5 µM
Reference: control
| SMILES | remaining activity |
| --- | --- |
| CCOC(=O)c1c(C)[nH]c(/C=C2\C(=O)Nc3ccccc32)c1C | 96.4% |
| N#CC(C#N)=C(N)/C(C#N)=C/c1ccc(O)cc1 | 98.7% |
| C#Cc1cccc(Nc2ncnc3cc(OCCOC)c(OCCOC)cc23)c1 | 86.9% |
| O=S(=O)(c1cccc2cnccc12)N1CCCNCC1 | 99.7% |
| O=C(CCCc1ccc(-c2ccccc2F)cc1)Nc1ccc(O)cc1 | 102% |
| Cn1sc(=O)n(Cc2ccccc2)c1=O | 100% |
| O=C(Nc1cccc(Nc2cc(Nc3cccc(C(F)(F)F)c3)ncn2)c1)C1CC1 | 98.9% |
| Cn1c2ccccc2c2c3c(c4c5ccccc5n(CCC#N)c4c21)CNC3=O | 97.5% |
| Cc1cccc(-c2[nH]c(C(C)(C)C)nc2-c2ccc3c(c2)OCO3)n1 | 63.4% |
| Cc1nc(-c2ccccc2)c(-c2ccncc2)o1 | 44% |
| CO[C@H]1C[C@@H]2CC[C@@H](C)[C@@](O)(O2)C(=O)C(=O)N2CCCC[C@H]2C(=O)O[C@H]([C@H](C)C[C@@H]2CC[C@@H](O)[C@H](OC)C2)CC(=O)[C@H](C)/C=C(\C)[C@@H](O)[C@@H](OC)C(=O)[C@H](C)C[C@H](C)/C=C/C=C/C=C/1C | 110% |
| NCCNc1ncc(C(N)=O)c(Nc2cccc(C(F)(F)F)c2)n1 | 85.1% |
| CC(C)[C@H](CO)Nc1nc(Nc2cc(N)cc(Cl)c2)c2ncn(C(C)C)c2n1 | 65.7% |
| COc1ccc(C(=O)Nc2sc3c(c2C(N)=O)CCCC3)cc1OC | 103% |
| O=C1NC(=O)C(c2cn(CCCO)c3ncccc23)=C1c1cnccn1 | 99.4% |

Sample 3
Structure (SMILES): CN(c1ccnc(CNc2nc(Nc3ccc4c(c3)CC(=O)N4)ncc2C(F)(F)F)n1)S(C)(=O)=O
Technique: competition with immobilised ligand
Concentration: 1 µM
| target | assay | remaining binding [%] |
| --- | --- | --- |
| Non-receptor tyrosine-protein kinase TYK2, JH2 (TYK2, Homo sapiens, UniProt P29597) | cell-free assay | 59 |
| Macrophage-stimulating protein receptor (MST1R, Homo sapiens, UniProt Q04912) | cell-free assay | 72 |
| Proto-oncogene tyrosine-protein kinase ROS (ROS1, Homo sapiens, UniProt P08922) | cell-free assay | 43 |
| Proto-oncogene tyrosine-protein kinase receptor Ret (RET, Homo sapiens, UniProt P07949) | cell-free assay | 49 |
| Tyrosine-protein kinase JAK2, JH1 (JAK2, Homo sapiens, UniProt O60674) | cell-free assay | 3.8 |
| Proto-oncogene tyrosine-protein kinase receptor Ret (RET, Homo sapiens, UniProt P07949, V804L) | cell-free assay | 21 |
| Serine/threonine-protein kinase WNK4 (WNK4, Homo sapiens, UniProt Q96J92) | binding | 0 |
| Ephrin type-A receptor 6 (EPHA6, Homo sapiens, UniProt Q9UF33) | cell-free assay | 85 |

Sample 4
Organism: Sarcocystis neurona
Read-out: parasite growth
Concentration: 10 µM
Time: 96 h
Setting: first screen
Reference: untreated
| Compound | log2 fold change |
| --- | --- |
| CCN1CCN(C(=O)N[C@@H](C(=O)N[C@@H]2C(=O)N3[C@@H]2SC(C)(C)[C@@H]3C(=O)O)c2ccccc2)C(=O)C1=O | 0.018 |
| CC[C@H](C)C(=O)O[C@H]1C[C@H](O)C=C2C=C[C@H](C)[C@H](CC[C@@H](O)C[C@@H](O)CC(=O)O)[C@H]21 | -0.05 |
| CC1(C)O[C@@H]2C[C@H]3[C@@H]4C[C@H](F)C5=CC(=O)C=C[C@]5(C)[C@@]4(F)[C@@H](O)C[C@]3(C)[C@]2(C(=O)CO)O1 | -0.38 |
| CC(C)(C)NC(=O)[C@@H]1C[C@@H]2CCCC[C@@H]2CN1C[C@@H](O)[C@H](Cc1ccccc1)NC(=O)[C@H](CC(N)=O)NC(=O)c1ccc2ccccc2n1 | -0.48 |
| O=C1Nc2ccc(Cl)cc2[C@@](C#CC2CC2)(C(F)(F)F)O1 | -0.34 |
| O=[N+]([O-])c1cccc2cn[nH]c12 | -0.0273 |
| Cc1cc(NS(=O)(=O)c2ccc(N)cc2)no1 | 0.17 |

Repeated from above (sample 2):
| SMILES | remaining activity |
| --- | --- |
| O=C(CCCc1ccc(-c2ccccc2F)cc1)Nc1ccc(O)cc1 | 102% |
| Cn1c2ccccc2c2c3c(c4c5ccccc5n(CCC#N)c4c21)CNC3=O | 97.5% |
